Measured values collected from several papers.
Every numbered part comes from another study and shows a few of its results, in no order.

Series 1
Target: Ras GTPase-activating protein-binding protein 1, C-terminal RGG region (G3BP1, Homo sapiens, UniProt Q13283)
Chain of UniProt Q13283 (whole entry, looked up): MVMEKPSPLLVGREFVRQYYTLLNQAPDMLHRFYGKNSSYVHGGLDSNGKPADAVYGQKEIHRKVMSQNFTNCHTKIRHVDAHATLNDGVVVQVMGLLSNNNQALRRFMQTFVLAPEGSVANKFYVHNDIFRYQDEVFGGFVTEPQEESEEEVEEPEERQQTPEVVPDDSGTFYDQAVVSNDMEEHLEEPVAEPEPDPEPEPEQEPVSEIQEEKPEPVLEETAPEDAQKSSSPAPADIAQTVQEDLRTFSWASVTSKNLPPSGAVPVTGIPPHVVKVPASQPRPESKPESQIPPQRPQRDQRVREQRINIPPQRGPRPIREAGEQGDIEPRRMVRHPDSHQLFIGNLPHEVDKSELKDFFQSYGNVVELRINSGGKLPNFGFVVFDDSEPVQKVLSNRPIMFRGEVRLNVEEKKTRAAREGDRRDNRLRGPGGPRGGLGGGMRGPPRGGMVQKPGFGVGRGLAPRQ
Method: RNA Bind-n-Seq
Molecule type: RNA
Medium: in vitro
Tested at: 1 µM
Notes: whole 134-nt RNA, ends assumed
With: 150 mM KCl
Baseline: input library
Reading: higher = stronger binding
Quantity: log2 enrichment
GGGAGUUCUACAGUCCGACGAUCUGGCCCUGGUGGCAUGCGGGGAGGAAGAGGUGGCCUCAUGGAUCGUGGUGGUCCCGGUGGAAUGUUCAGAGGUGGCCGUGGUGGAGACAAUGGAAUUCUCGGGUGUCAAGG: 2.43
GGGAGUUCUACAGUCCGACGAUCCAAGUCCUGUGCUACACAUCGUAUGUACCGAAUCGGGGAGGGGUGGGGAAAGGGGAAAGUAUUAUGUUACGCCGUUCGGAUCUGCACUUCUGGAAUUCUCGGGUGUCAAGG: 2.72
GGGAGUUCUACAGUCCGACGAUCUCCUGUGCUACACAUCGUAUGUACCGAAUCGGGGUUUUUUUGGGGAAAAAGGGGUGGGGAAAGUAUUAUGUUACGCCGUUCGGAUCUGCAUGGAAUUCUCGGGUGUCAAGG: 1.29
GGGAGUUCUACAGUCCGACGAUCCCUCAAGUCCUGUGCUACACAUCGUAUGUACCGAAUCGGUUGGGGUUGGUUGGAAAGUAUUAUGUUACGCCGUUCGGAUCUGCACUUCCAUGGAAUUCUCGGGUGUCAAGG: -0.834
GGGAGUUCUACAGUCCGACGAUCCUCAAGUCCUGUGCUACACAUCGUAUGUACCGAAUCGGGUGGGAAAGGGAGGGAAAGUAUUAUGUUACGCCGUUCGGAUCUGCACUUCCAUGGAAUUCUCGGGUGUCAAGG: 1.72
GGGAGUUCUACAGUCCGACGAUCUGGCCCUGUUGGCAUGCGGGGAGGAAGAGGUGGCCUCAUGGAUCGUGGUGGUCCCGGUGGAAUGUUCAGAGGUGGCCGUGGUGGAGACAGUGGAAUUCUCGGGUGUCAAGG: 2.07
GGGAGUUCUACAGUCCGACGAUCUGGACCUGGUGGCAUGCGGGGAGGAAGAGGUGGCCUCAUGGAUCGUGGUGGUCCCGGUGGAAUGUUCAGAGGUGGCCGUGGUGGAGACAGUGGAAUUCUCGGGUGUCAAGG: 1.95
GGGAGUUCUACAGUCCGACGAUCCUGUGCUACACAUCGUAUGUACCGAAUCGGGGUUUGGGGUUUUUUUGGGGUUUUUUUGGGGAAAGUAUUAUGUUACGCCGUUCGGAUCUGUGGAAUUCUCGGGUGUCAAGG: 0.357
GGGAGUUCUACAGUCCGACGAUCCUGUGCUACACAUCGUAUGUACCGAAUCGGGCCCCCCCGGCCCCCCCGGGGCCCCCCCGGGAAAGUAUUAUGUUACGCCGUUCGGAUCUGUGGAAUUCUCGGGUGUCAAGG: -1.66

Series 2
Target: RNA binding protein fox-1 homolog 2, RRM domain, GST-SBP tag (RBFOX2, Homo sapiens, UniProt O43251-10, residues 100-194)
Method: RNA Bind-n-Seq
Molecule type: RNA
Medium: in vitro
Tested at: 365 nM
Notes: natural RNA segment, single round, ends assumed
Baseline: no-protein control
Reading: higher = stronger binding
Quantity: RBNS enrichment (R)
Target sequence (chain): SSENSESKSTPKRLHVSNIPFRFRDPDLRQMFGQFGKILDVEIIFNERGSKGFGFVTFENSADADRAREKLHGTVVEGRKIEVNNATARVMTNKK
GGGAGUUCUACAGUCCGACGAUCGCAGUGUAAAUGCUAGGCCUCAGAAAUCUGAAAAAAGAUAGCAAAGAAAGUGGGUUUGGAACGUAUGGUUUGGAAUUGCUUGUCAGACUCUGAAGAAGAUGUGUUUCAGCUGGAAUUCUCGGGUGCCAA: 2.16
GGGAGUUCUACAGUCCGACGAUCAAGGGAGGCAGGCACCGUGGGAUUUGGGCUUGCUCUGCUUGGUCCCCAUGUGAUGCCCUGUGCUGUAAGAUAUCAGAAAGACCUGGAACAAGGCAAACUUUAUGUCCUCCUGGAAUUCUCGGGUGCCAA: 0.483
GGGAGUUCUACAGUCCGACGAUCGGUGGCCGUCAUUGGGAAAGCAUCGAGAAAGAGGCGAGCUUUGCAUCUGUCCCUUGACAGGGAAGGUAGGCUUCUGGCUAGCAGAGCAGGUGACACAAACCAGUUUAUUGUGGAAUUCUCGGGUGCCAA: 0.295
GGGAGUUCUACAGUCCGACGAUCCAGUCAAGGAGAUGAGCGUCCUAAGGCAUGUUGGGAUAGGGUCAGAUGCACCACCCAUGGAGAGGUUUGUCAACACAAAGACAUGGAAGGUUAGAGGUUUGUCAACAAAAUGGAAUUCUCGGGUGCCAA: 6.48
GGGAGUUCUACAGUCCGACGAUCGCCCUGCACUAGACACCCGACCCUUACUAGCCACCAGCCUUAAUUAAACACGGCCUUGGCCUAAGGCCUGGCUGGCUAGUGCUCUGAGUGACUCUAUUUUCCCUGAGCUUUGGAAUUCUCGGGUGCCAA: 0.235
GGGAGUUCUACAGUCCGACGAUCGUCCUUAGACCAUCUUCCUACAUUACCUGGAAGGGAGCUGCCAUCUGUCCCUCUGCAGAGGGAUACCUUCCAAUAGUAAAUUAUCUGGUUCCUCACUGAAACAAGUUAUUUGGAAUUCUCGGGUGCCAA: 0.439
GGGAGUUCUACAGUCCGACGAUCUCCUACAAGCUGCUUCGAGGUCCAGGGGCCUCUGCUUCUUAAACACUAUGUCCCAGUCUUCUCAUGUGACCUCAGCCUGAACCCUGUGGAGACCUCCUCUGGCCAGGGGGUGGAAUUCUCGGGUGCCAA: 0.323
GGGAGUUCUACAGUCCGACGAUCUUCCAUCUUUGUAUACACCUGCAUGCAGGAAGACCUGGAUAUGGAUGAGCCCUGAGGAACACAGGGAGGGCCUUGAAGAACAAUCUACAGAUGCACAAUCCUUUCCAACCUGGAAUUCUCGGGUGCCAA: 4.77

Series 3
Target: Prothrombin, mature alpha-thrombin (F2, Homo sapiens, UniProt P00734)
Method: aptamer microarray, sandwich
Molecule type: DNA with 2'F-ANA
Medium: in vitro
Tested at: 200 nM
Notes: whole 15-mer aptamer, many near background
With: Cy3 exosite-II aptamer, 400 nM
Reading: higher = stronger binding
Quantity: mean fluorescence intensity
Oligonucleotide: GGTTGGTGTGGTTGG
2'F-ANA at 2 4 5 6 8 10 12 14: 48.4 a.u.
2'F-ANA at 3 4 6 8 10 11 13 14: 142 a.u.
2'F-ANA at 5 6 7 8 9 12 15: 165 a.u.
2'F-ANA at 1 2 4 7 9 13 14: 91.7 a.u.
2'F-ANA at 5 6 9 14: 51.9 a.u.
2'F-ANA at 2 5 6 7 8 11 12 13: 105 a.u.
2'F-ANA at 2 4 5 7 10 11 12 13: 48.8 a.u.
2'F-ANA at 3 4 5 6 7 8 9 10 11 13 14: 50.7 a.u.
2'F-ANA at 1 2 4 5 8 12 13 14 15: 45.7 a.u.
2'F-ANA at 1 2 5 6 7 8 9 11 12 13 14 15: 49.6 a.u.
2'F-ANA at 1 2 6 7 8 10 11 15: 72.6 a.u.
2'F-ANA at 2 3 4 5 6 7 9 11 12: 141 a.u.
2'F-ANA at 1 13 15: 144 a.u.
2'F-ANA at 3 7 8 9 11 12 15: 1400 a.u.
2'F-ANA at 2 3 6 8 9 11 12: 918 a.u.
2'F-ANA at 1 3 6 7 10 13 14: 66.3 a.u.
2'F-ANA at 1 3 6 7 8 9 11 13 14 15: 91.1 a.u.
2'F-ANA at 1 2 3 5 7 9 10 12 13 15: 54.1 a.u.
2'F-ANA at 1 2 5 10 12 14: 47.7 a.u.
2'F-ANA at 2 3 4 5 9 13: 61.8 a.u.
2'F-ANA at 1 3 10 11 13: 74.2 a.u.

Series 4
Target: RING finger protein unkempt homolog, zinc fingers 1-6, GST-SBP tag (UNK, Homo sapiens, UniProt Q9C0B0, residues 30-357)
Method: RNA Bind-n-Seq
Molecule type: RNA
Medium: in vitro
Tested at: not given
Notes: RNA with constant flanks, human and mouse sites, ends assumed
Baseline: input RNA pool
Reading: higher = stronger binding
Quantity: bound/input enrichment
Construct (chain): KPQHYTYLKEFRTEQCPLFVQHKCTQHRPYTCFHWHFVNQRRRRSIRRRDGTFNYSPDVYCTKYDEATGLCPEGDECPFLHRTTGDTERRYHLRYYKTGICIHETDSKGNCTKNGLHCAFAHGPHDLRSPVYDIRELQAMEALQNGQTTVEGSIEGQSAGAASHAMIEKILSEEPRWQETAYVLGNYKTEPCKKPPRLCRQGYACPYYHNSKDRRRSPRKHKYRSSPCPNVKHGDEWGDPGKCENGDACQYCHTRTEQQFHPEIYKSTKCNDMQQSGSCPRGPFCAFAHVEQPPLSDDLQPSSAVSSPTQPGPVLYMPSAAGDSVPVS
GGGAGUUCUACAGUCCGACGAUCUUUACAGCAGAAGACAGUGGGAAAGAGAGCAAGACUCCUCCCGCGGAAGGACAAGAGAAGCAGCUGGUUACAUGGAGACUGAAGCUCACCCCUGUUGACUACCUGCUGGGCGUGGCCGACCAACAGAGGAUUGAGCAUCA: 0.25 ratio
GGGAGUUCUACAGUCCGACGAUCUCCAGCUCUUGAUGUUUUUAAACUUUUUUUUAGAAGAAAAAUUAAGUACAGAAAAGCCCAGAUUUAAAUACAUUUAAUAUGUCAUUUUAAAAAUGAUUUUAAUAAUUCAUUUCUUAAAACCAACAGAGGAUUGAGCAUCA: 0.387 ratio
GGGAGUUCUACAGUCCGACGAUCCUCGCCUCCGUCCUGCUCUCCCUGCUCCUCAUUCUCAAGGCGGGAAGGAGGUGGAACAAAUAUUUCAAAUCACGGAGACCUCUCUUUACAGGAGGCCUCAUCGGGGGCCUCUUCACCUACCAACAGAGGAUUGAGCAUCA: 0.289 ratio
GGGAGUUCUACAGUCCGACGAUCUUCAUUUAUACCAUCUAAUAUAUGACACACUGUUGUAGUAUGUAUAAUUUUGUGAUCUUUAUUUUCCCUUUGUAUUCAUUUUAAGCAUCUAAAUAAAUUGCUGUAUUGUGCUUAAUGUAACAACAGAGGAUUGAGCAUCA: 1.08 ratio
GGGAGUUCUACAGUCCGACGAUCUCGCAGCGGAGAGAGCAGAAGGCAGGAGGAGGGAGGGGAGGAGGGAGGAGGGAGGGAGAGAGGGAAUCCAGCUACCACCACCCAAAGCCAGCGUCUGCUUUCUGUCCUCAUUUCCUUUUCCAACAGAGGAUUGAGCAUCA: 0.408 ratio
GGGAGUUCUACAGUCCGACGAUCUGACGUGUCUCACUAUGAACUGCAAGUGGAGAUAGGAAGAGGGUUUGACAACUUGACCUCUGUUCAUCUUGCACGGCACACUCCUACAGGAACACUGGUAACUGUAAAGAUUACAAACCUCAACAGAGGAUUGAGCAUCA: 0.0722 ratio
